Measured values from different studies.
Compare with care: the assays were run in different laboratories. Several values in a cell are separate wells, animals, samples, runs or records. Numbers after ± are the reported error.
Disks large homolog 4 PDZ3 domain: Disks large homolog 4, PDZ3 domain (Homo sapiens, UniProt P78352)
Nr3c1: Glucocorticoid receptor (Nr3c1, Rattus norvegicus, UniProt P06536)
CASP4: Caspase-4 (CASP4, Homo sapiens, UniProt P49662)
Fibroblast growth factor 2 with pentraxin 3: Fibroblast growth factor 2, with pentraxin 3 (Homo sapiens, UniProt P09038)
APP: Amyloid-beta precursor protein (APP, Homo sapiens, UniProt P05067)

The kon of `CC(C)[C@H](NC(=O)[C@H](CCCNC(=N)N)NC(=O)[C@@H](NC(=O)[C@H](CCC(N)=O)NC(=O)[C@H](CCC(N)=O)NC(=O)[C@@H](NC(=O)[C@H](Cc1c[nH]c2ccccc12)NC(=O)[C@@H]1CCCN1C(=O)[C@@H]1CCCN1C(=O)[C@H](Cc1c[nH]cn1)NC(=O)[C@H](CO)NC(=O)CNC(=O)[C@H](CCCNC(=N)N)NC(=O)[C@H](CCCNC(=N)N)NC(=O)[C@H](CCCNC(=N)N)NC(=O)[C@H](CCCNC(=N)N)NC(=O)[C@H](CCCNC(=N)N)NC(=O)[C@@H](N)CCCNC(=N)N)C(C)C)[C@@H](C)O)C(=O)O` is reported as 216000 M⁻¹ s⁻¹ (Disks large homolog 4 PDZ3 domain; binding, surface plasmon resonance; pH 7.5, 25 °C).
The binding enthalpy of `CC(=O)N[C@H]1C(O)O[C@H](CO)[C@H](O)[C@@H]1O` (mixture of isomers) is reported as -11.6 kcal/mol (CLEC10A (Homo sapiens, UniProt Q8IUN9); ITC; concentration not given, pH 7.4, 298 K).
The stimulation of `CNC(=O)c1cc(Oc2ccc(NC(=O)Nc3ccc(Cl)c(C(F)(F)F)c3)cc2)ccn1` is reported as 27% (Signal peptidase IB (spsB, Staphylococcus aureus, UniProt Q5HHB9); enzyme activity, activator, FRET peptide cleavage; Escherichia coli membranes; 10 µM; baseline: DMSO).
With `CSCC[C@H](NC(=O)[C@H](CC(C)C)NC(=O)[C@H](CCCCN)NC(=O)[C@H](CCCCN)NC(=O)[C@H](Cc1c[nH]cn1)NC(=O)[C@H](CCCNC(=N)N)NC(=O)[C@H](CO)NC(=O)[C@@H](NC(=O)[C@H](CO)NC(=O)[C@H](CCC(N)=O)NC(=O)CNC(=O)[C@H](CCCCN)NC(=O)[C@H](CCCCN)NC(=O)[C@H](CO)NC(=O)[C@H](CCCCN)NC(=O)[C@H](CC(C)C)NC(=O)[C@H](Cc1c[nH]cn1)NC(=O)[C@H](CO)NC(=O)[C@H](Cc1ccc(O)cc1)NC(C)=O)[C@@H](C)O)C(=O)N[C@@H](Cc1ccccc1)C(=O)N[C@@H](CCCCN)C(=O)N[C@H](C(=O)N[C@@H](CCC(=O)O)C(N)=O)[C@@H](C)O` the koff was 1000 ± 200 s⁻¹ (Protein S100-B (Homo sapiens, UniProt P04271); binding, NMR line shape, NMR only; 35 °C, low salt).
`Cn1c(=O)c2[nH]c(SCc3ccccc3)nc2n(C)c1=O` has a remaining activity of 127% (Nr3c1; reporter gene, antagonist, MMTV-luciferase; T47D/A1-2; 10 µM, 24 h, together with: 5 nM dexamethasone; baseline: maximal activity).
`Nc1nc2c(ncn2[C@@H]2O[C@@H]3COP(=O)(O)O[C@H]3[C@H]2O)c(=O)[nH]1` — result for “relative maximal current”: 0.35 ± 0.16 (Cnga2 (Rattus norvegicus, UniProt Q00195, E583M); ion current, agonist, inside-out patch clamp; E583M channel, -50 mV; baseline: cAMP at saturation).
For `O=C(O)CCC(=O)c1ccc(-c2ccccc2)cc1`, the remaining activity was 3.71% (CASP4; 33 µM, together with: LEHD substrate; baseline: solvent control).
For `O=C(O)CCc1ccc(O)c(CN(CCN(CC(=O)O)Cc2cc(CCC(=O)NCCCCCC(=O)NCCCC[C@H](NC(=O)N[C@@H](CCC(=O)O)C(=O)O)C(=O)O)ccc2O)CC(=O)O)c1`, the internalized fraction was 17.9 ± 0.7% (FOLH1 (Homo sapiens, UniProt Q04609); 68Ga-labelled; LNCaP; 30 nM, 45 min, 37 °C; baseline: bound).
For `CNc1cccc2cc(C(=O)NCCc3cccc(C(=O)O)c3)c(=O)[nH]c12`, “fold increase in activity” read greater than 4500 fold (gyrB (Escherichia coli, UniProt P0AES6); DNA supercoiling, inhibitor; concentration not given; baseline: analogue without N-methylamino).
`CCCSc1nc2c([nH]1)c(=O)n(C)c(=O)n2C` gave a remaining activity of 108% (Androgen receptor (AR, Homo sapiens, UniProt P10275); reporter gene, antagonist, PSA-luciferase; HeLa-A6; 10 µM, 24 h, together with: 5 nM dihydrotestosterone; baseline: maximal activity).
`O=S(=O)(Nc1ccccc1)C1CC2OC1C(c1ccc(O)cc1)=C2c1ccc(O)cc1` (centres unmarked) has an efficacy of 83 ± 5% (Estrogen receptor (ESR1, Homo sapiens, UniProt P03372); reporter gene, antagonist; HepG2; together with: estradiol 10 nM; baseline: E2 response, negative is inverse agonism).
The remaining activity of `CCC(CC)CSc1nc2c([nH]1)c(=S)n(C)c(=O)n2C` is reported as 89% (Nr3c1; reporter gene, antagonist, MMTV-luciferase; T47D/A1-2; 10 µM, 24 h, together with: 5 nM dexamethasone; baseline: maximal activity).
`Cc1cc(=O)oc2cc(NC(=O)[C@H](CCCNC(=N)N)NC(=O)CN)ccc12` has a kcat of 1.25 ± 0.02 s⁻¹ (dipeptidyl aminopeptidase (Parabacteroides distasonis); substrate, fluorogenic AMC; 50 nM to 100 µM).
`Ac-PARAC-NH2 (N-acetyl, C-amide)` has an ID50 of 1000 µM (Fibroblast growth factor 2 with pentraxin 3; binding to PTX3, competitor, surface plasmon resonance; peptide; together with: 150 nM free FGF2).
`Ac-GPSLNPFDEED-NH2 (N-acetyl, C-amide)` gave a ΔG of -7.92 kcal/mol (EHD1 EH domain, mouse; ITC; peptide; pH 7.0, 20 °C, 0 mM KCl, second titration).
`Cc1cc2nc[nH]c2cc1C` has a product formed of 167 ± 2.7 µM (cobT (Desulfitobacterium hafniense, UniProt Q24VN9); alpha-ribazole phosphate formation, substrate; 250 µM, 30 min, pH 7.5, 30 °C, together with: 2 mM NaMN).
Under “farnesylation rate constant”, `CVQM` is recorded as 1.7 ± 0.2 s⁻¹ (Protein farnesyltransferase (Rattus norvegicus, UniProt Q02293+Q04631); substrate, stopped-flow fluorescence; peptide; pH 7.8, 25 °C, single turnover).
For `O=C(N1CCCC[C@@H]1Cc1ccccc1)n1ncc(C(O)(c2ccc(F)cc2)c2ccc(F)cc2)n1`, the kinact was 0.00367 s⁻¹ (Diacylglycerol lipase-alpha (Mus musculus, UniProt Q6WQJ1); enzyme activity, inhibitor).
`CC[C@H](C)[C@H](NC(=O)COCCOCCOCCOCCN=[N+]=[N-])C(=O)N[C@@H](CCC(=O)O)C(=O)N[C@@H](CC(C)C)C(=O)N[C@@H](CC(C)C)C(=O)N[C@@H](CCC(N)=O)C(=O)N[C@@H](C)C(=O)N[C@@H](CCCNC(=N)N)C(N)=O`: “dissociation rate constant” 0.0779 ± 0.00381 s⁻¹ (E-selectin (SELE, Homo sapiens, UniProt P16581); binding, surface plasmon resonance).
For `CN(C)C/C=C/C(=O)Nc1cccc(C(=O)Nc2ccc(Nc3nccc(-c4c(-c5ccccc5)nn5ccccc45)n3)cc2)c1`, the inhibition was 98.9% (MAPK14 (Homo sapiens, UniProt Q16539); target engagement in cells, inhibitor, chemoproteomics; A-375; 1 µM).
For `CN(Cc1cnc2nc(N)nc(N)c2n1)c1ccc(C(=O)N[C@@H](CCC(=O)O)C(=O)O)cc1`, the transport activity was roughly 17% (SLC19A1 (Homo sapiens, UniProt P41440, S313A); substrate, radiolabelled uptake; HeLa R5 transfected; 0.5 µM, 2 min, 37 °C; baseline: wild-type hRFC).
`Cc1c(Nc2ncccc2C(=O)O)cccc1C(F)(F)F` has a remaining activity of 17.9% (CASP4; 33 µM, together with: LEHD substrate; baseline: solvent control).
Under “apparent redox midpoint concentration”, `O=C1O[C@H]([C@@H](O)CO)C(O)=C1O` is recorded as 5.3 ± 2 µM (Transmembrane ascorbate-dependent reductase CYB561 (CYB561, Bos taurus, UniProt P10897); high-potential heme reduction, spectrophotometric titration; 100 mM phosphate, 18% glycerol, 0.08% dodecyl maltoside; pH 7.2, 5 to 11 µM cytochrome).
With `Nc1ncnc2c1ncn2[C@H]1C[C@H](O)[C@@H](COP(=O)(O)O)O1` the relative Vmax was 48 ± 4% (AK1 (Homo sapiens, UniProt P00568); substrate; baseline: kcat of D-AMP with human AK1).
The band density of `COc1cc(C=CC(=O)CC(=O)C=Cc2ccc(O)c(OC(F)(F)F)c2)ccc1O` is reported as 965 ± 214% (APP; Aβ aggregation, SDS-PAGE western blot, measured: Aβ1-42 75-200 kDa band; 30 µM, 24 h, 37 °C, together with: Aβ1-42 10 µM; baseline: DMSO).
The inhibition of `CC[C@@H](C)[C@@H](NC(=O)[C@@H](NC(=O)[C@@H](N)C(C)C)C(C)C)C(=O)N[C@@H](C)C(N)=O` is reported as 25.3% (APP; amyloid aggregation, inhibitor, fluorescence; 4 µM, 24 h).
For `COc1ccc(/C=C/C(=O)Nc2ccccc2C(=O)O)cc1OC`, the remaining activity was 11.4% (CASP4; 33 µM, together with: LEHD substrate; baseline: solvent control).
`CC(C)C[C@H](NC(=O)[C@H](Cc1c[nH]c2ccccc12)NC(=O)[C@@H]1CCCN1C(=O)[C@@H]1CCCN1C(=O)[C@H](Cc1ccccc1)NC(=O)[C@H](CO)NC(=O)CNC(=O)[C@H](CCCNC(=N)N)NC(=O)[C@H](CCCNC(=N)N)NC(=O)[C@H](CCCNC(=N)N)NC(=O)[C@H](CCCNC(=N)N)NC(=O)[C@H](CCCNC(=N)N)NC(=O)[C@@H](N)CCCNC(=N)N)C(=O)N[C@@H](CCC(N)=O)C(=O)N[C@@H](CCC(N)=O)C(=O)N[C@H](C(=O)N[C@@H](CCCNC(=N)N)C(=O)N[C@H](C(=O)O)C(C)C)[C@@H](C)O` has a kon of 65000 M⁻¹ s⁻¹ (Disks large homolog 4 PDZ3 domain; binding, surface plasmon resonance; pH 7.5, 25 °C).
With `Ac-ARPMA-NH2 (N-acetyl, C-amide)` the ID50 was greater than 3000 µM (Fibroblast growth factor 2 with pentraxin 3; binding to PTX3, competitor, surface plasmon resonance; peptide; together with: 150 nM free FGF2).
`O=S(=O)(O)c1cc(N=C=S)ccc1CCc1ccc(N=C=S)cc1S(=O)(=O)O` has an ID50 of 0.38 µM and 0.19 µM and 0.28 µM and 0.24 µM (SLC4A1 (Homo sapiens, UniProt P02730); chloride exchange; human red blood cells; pH 7.2, 0 °C, no chloride gradient).
For `CC(=O)N[C@H]1[C@H](Oc2ccc3c(C)cc(=O)oc3c2)O[C@H](CO)[C@@H](O)[C@@H]1O`, the kcat/Km was 7000 M⁻¹ s⁻¹ (O-GlcNAcase (human, wild type); substrate; up to 2 mM, 1% DMSO).
`Cc1ccccc1-c1ccc(C(=O)N2CC3(C)CC2CC(C)(C)C3)cc1` (centres unmarked) — result for “radiotracer uptake reduction”: 26% (Vasopressin V1a receptor (Mus musculus, UniProt Q62463); blocker; CD-1 mouse, cortex; subcutaneous, 3 mg/kg, 60 min).

Repeated from above:
`O=S(=O)(O)c1cc(N=C=S)ccc1CCc1ccc(N=C=S)cc1S(=O)(=O)O` has an ID50 of 0.38 µM and 0.19 µM and 0.28 µM and 0.24 µM (SLC4A1 (Homo sapiens, UniProt P02730); chloride exchange; human red blood cells; pH 7.2, 0 °C, no chloride gradient).
The kon of `CC(C)[C@H](NC(=O)[C@H](CCCNC(=N)N)NC(=O)[C@@H](NC(=O)[C@H](CCC(N)=O)NC(=O)[C@H](CCC(N)=O)NC(=O)[C@@H](NC(=O)[C@H](Cc1c[nH]c2ccccc12)NC(=O)[C@@H]1CCCN1C(=O)[C@@H]1CCCN1C(=O)[C@H](Cc1c[nH]cn1)NC(=O)[C@H](CO)NC(=O)CNC(=O)[C@H](CCCNC(=N)N)NC(=O)[C@H](CCCNC(=N)N)NC(=O)[C@H](CCCNC(=N)N)NC(=O)[C@H](CCCNC(=N)N)NC(=O)[C@H](CCCNC(=N)N)NC(=O)[C@@H](N)CCCNC(=N)N)C(C)C)[C@@H](C)O)C(=O)O` is reported as 216000 M⁻¹ s⁻¹ (Disks large homolog 4 PDZ3 domain; binding, surface plasmon resonance; pH 7.5, 25 °C).
For `O=C(O)CCc1ccc(O)c(CN(CCN(CC(=O)O)Cc2cc(CCC(=O)NCCCCCC(=O)NCCCC[C@H](NC(=O)N[C@@H](CCC(=O)O)C(=O)O)C(=O)O)ccc2O)CC(=O)O)c1`, the internalized fraction was 17.9 ± 0.7% (FOLH1 (Homo sapiens, UniProt Q04609); 68Ga-labelled; LNCaP; 30 nM, 45 min, 37 °C; baseline: bound).
With `Nc1ncnc2c1ncn2[C@H]1C[C@H](O)[C@@H](COP(=O)(O)O)O1` the relative Vmax was 48 ± 4% (AK1 (Homo sapiens, UniProt P00568); substrate; baseline: kcat of D-AMP with human AK1).
`CC[C@H](C)[C@H](NC(=O)COCCOCCOCCOCCN=[N+]=[N-])C(=O)N[C@@H](CCC(=O)O)C(=O)N[C@@H](CC(C)C)C(=O)N[C@@H](CC(C)C)C(=O)N[C@@H](CCC(N)=O)C(=O)N[C@@H](C)C(=O)N[C@@H](CCCNC(=N)N)C(N)=O`: “dissociation rate constant” 0.0779 ± 0.00381 s⁻¹ (E-selectin (SELE, Homo sapiens, UniProt P16581); binding, surface plasmon resonance).
